Experimental data pooled from the literature.
Parts stem from different laboratories: compare values within a part only.
Sequence of UniProt P78362 (whole entry, looked up): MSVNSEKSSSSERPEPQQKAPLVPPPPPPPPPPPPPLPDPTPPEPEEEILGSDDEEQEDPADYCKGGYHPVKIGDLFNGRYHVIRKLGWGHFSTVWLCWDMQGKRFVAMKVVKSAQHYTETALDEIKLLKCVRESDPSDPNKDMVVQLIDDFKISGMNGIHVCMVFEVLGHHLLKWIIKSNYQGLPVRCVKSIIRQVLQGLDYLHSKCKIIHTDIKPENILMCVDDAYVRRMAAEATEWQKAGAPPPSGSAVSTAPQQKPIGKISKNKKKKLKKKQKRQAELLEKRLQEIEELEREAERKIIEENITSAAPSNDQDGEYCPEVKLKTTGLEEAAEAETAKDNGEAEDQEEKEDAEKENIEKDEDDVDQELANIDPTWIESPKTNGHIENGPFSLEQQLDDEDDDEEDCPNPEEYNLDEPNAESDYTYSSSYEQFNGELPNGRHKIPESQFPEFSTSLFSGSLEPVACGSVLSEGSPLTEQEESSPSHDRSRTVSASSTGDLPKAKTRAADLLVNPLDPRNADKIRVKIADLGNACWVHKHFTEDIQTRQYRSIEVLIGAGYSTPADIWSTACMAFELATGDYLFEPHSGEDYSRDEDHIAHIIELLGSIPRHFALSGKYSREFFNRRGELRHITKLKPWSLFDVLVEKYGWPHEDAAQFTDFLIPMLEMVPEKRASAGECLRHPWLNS
Sequence of UniProt P54762 (whole entry, looked up): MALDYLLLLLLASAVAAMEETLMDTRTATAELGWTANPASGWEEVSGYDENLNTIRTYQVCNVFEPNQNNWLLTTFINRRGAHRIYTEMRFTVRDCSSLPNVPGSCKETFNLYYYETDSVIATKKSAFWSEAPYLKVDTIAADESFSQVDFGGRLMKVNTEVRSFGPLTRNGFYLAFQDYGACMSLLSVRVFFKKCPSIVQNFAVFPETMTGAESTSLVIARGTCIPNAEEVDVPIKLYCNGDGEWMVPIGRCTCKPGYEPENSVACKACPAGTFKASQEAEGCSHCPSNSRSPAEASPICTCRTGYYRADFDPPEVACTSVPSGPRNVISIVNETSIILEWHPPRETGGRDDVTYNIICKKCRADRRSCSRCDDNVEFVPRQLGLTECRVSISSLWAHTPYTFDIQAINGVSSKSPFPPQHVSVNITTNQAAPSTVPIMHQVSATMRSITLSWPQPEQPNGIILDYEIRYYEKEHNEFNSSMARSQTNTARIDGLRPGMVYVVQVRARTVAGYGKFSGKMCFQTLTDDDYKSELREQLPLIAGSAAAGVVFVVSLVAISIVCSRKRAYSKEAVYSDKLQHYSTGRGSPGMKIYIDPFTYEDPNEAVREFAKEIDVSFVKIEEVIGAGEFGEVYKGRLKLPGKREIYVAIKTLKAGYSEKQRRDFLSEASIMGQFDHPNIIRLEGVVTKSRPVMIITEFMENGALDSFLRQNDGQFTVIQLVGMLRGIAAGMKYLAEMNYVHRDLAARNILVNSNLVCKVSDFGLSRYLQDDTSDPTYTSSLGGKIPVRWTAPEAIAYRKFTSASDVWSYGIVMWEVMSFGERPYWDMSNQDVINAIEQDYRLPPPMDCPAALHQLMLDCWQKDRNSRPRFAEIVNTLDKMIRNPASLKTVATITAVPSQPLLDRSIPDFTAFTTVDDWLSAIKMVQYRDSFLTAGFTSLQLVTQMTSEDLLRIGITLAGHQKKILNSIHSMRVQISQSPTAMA
Sequence of UniProt P49761 (whole entry, looked up): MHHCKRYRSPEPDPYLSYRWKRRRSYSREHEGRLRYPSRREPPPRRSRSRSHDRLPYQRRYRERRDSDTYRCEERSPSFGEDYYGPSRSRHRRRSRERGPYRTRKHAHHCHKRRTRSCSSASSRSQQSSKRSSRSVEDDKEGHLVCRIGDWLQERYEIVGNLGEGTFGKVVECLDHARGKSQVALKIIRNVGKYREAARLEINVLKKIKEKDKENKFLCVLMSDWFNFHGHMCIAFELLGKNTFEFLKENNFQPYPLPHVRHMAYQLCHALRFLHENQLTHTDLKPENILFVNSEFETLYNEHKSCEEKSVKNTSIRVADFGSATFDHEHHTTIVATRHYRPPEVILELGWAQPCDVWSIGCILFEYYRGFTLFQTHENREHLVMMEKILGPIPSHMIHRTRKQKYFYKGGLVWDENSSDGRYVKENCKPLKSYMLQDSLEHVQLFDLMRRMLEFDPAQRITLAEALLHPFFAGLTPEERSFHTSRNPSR
Sequence of UniProt Q9NRM7 (whole entry, looked up): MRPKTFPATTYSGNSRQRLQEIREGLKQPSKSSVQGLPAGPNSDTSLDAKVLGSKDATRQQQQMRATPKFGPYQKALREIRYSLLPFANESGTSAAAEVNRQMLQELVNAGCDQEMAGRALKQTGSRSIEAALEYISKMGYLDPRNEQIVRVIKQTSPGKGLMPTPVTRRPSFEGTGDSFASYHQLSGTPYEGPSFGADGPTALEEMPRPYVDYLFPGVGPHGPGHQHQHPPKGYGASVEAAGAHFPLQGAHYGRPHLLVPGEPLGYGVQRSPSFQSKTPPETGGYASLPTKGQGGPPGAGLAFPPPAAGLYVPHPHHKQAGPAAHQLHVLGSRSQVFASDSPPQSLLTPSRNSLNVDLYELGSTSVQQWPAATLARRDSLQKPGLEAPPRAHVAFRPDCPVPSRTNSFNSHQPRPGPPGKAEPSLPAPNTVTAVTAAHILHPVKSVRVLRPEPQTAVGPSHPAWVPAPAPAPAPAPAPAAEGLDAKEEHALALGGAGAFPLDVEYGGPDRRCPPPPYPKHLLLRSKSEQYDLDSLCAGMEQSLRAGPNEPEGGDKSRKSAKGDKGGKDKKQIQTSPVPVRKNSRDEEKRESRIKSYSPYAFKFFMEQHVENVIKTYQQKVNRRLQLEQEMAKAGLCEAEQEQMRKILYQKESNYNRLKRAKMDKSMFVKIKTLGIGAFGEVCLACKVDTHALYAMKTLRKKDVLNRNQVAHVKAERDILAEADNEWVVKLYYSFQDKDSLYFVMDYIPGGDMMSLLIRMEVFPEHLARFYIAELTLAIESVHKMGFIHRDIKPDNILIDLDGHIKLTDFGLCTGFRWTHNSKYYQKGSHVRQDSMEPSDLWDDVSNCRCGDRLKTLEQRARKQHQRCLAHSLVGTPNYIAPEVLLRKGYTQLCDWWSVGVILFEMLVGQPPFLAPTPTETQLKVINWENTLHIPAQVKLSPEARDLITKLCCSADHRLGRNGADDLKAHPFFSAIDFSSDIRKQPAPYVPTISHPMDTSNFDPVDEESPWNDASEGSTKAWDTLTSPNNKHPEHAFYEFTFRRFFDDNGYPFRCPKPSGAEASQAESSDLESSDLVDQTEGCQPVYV
Sequence of UniProt P35968 (whole entry, looked up): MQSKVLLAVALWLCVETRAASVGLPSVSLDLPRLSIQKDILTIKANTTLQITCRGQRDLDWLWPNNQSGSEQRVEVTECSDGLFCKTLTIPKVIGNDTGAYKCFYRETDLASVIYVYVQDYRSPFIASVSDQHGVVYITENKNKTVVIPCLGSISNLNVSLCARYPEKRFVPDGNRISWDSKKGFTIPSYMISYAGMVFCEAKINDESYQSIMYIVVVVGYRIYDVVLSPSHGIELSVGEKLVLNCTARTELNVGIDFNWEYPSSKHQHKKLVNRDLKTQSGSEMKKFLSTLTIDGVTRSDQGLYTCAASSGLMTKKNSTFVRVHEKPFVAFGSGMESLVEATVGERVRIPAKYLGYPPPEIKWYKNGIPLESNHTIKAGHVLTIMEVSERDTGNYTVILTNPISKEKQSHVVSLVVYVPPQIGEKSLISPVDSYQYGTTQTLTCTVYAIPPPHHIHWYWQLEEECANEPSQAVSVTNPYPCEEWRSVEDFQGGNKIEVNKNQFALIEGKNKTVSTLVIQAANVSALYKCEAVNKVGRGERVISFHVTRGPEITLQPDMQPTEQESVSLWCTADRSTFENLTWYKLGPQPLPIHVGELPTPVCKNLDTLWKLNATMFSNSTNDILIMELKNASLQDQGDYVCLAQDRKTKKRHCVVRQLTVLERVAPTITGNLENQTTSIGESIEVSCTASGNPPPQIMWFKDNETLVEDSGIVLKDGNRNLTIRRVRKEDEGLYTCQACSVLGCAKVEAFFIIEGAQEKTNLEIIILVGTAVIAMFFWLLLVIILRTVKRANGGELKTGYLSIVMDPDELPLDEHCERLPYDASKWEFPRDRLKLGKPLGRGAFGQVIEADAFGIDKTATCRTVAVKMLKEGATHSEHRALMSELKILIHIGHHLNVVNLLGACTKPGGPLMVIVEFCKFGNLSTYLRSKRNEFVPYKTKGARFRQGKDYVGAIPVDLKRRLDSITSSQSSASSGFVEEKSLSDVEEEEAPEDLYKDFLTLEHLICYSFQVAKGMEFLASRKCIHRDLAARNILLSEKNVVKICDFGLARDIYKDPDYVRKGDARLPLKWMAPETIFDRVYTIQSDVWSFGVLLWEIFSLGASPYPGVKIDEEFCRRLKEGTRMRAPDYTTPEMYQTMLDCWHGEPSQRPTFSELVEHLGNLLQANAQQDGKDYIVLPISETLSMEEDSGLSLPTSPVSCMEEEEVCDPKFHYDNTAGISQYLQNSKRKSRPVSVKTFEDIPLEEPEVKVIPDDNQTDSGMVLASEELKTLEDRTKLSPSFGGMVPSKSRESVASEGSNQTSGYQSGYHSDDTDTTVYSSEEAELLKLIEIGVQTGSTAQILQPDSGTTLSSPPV
Sequence of UniProt Q6P2M8 (whole entry, looked up): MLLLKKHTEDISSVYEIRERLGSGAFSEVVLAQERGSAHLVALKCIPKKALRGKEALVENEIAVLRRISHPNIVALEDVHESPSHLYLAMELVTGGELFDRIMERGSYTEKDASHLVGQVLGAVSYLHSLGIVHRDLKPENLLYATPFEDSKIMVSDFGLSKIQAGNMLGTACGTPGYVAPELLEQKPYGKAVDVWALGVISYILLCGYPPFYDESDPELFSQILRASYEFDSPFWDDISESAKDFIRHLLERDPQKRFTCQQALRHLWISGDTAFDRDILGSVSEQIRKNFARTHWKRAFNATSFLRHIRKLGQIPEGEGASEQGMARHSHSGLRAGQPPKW

Set 1
Structure (SMILES): CCc1ccccc1C(=O)Nc1n[nH]c2c(C)c(F)c(C3C(C#N)=C(C)N(C)C(C)=C3C#N)cc12
Observed: cell-free assay
Technique: competition with immobilised ligand
Tested at: 1 µM
| target | remaining binding [%] |
| --- | --- |
| LATS2 (Homo sapiens, UniProt Q9NRM7) | 67 |
| DDR1 (Homo sapiens, UniProt Q08345) | 48 |
| HIPK2 (Homo sapiens, UniProt Q9H2X6) | 100 |
| EPHB1 (Homo sapiens, UniProt P54762) | 100 |
| SRPK2 (Homo sapiens, UniProt P78362) | 100 |
| KIT (Homo sapiens, UniProt P10721, V559D/V654A) | 100 |
| PIK3C2B (Homo sapiens, UniProt O00750) | 100 |

Set 2
Target: Bromodomain-containing protein 4, BD1 (BRD4, Homo sapiens, UniProt O60885)
Observed: acetyl-histone H4 peptide binding
Technique: AlphaScreen displacement
Tested at: 50 µM
| Compound | inhibition [%] |
| --- | --- |
| CC(C)CNc1nccn2c(-c3cccnc3)cnc12 | 10.3 |
| Cc1nc(N)sc1-c1csc(Nc2ccc(N)cc2)n1 | 93.3 |
| Nc1nccc(-c2ccc3noc(-c4ccc(Cl)cc4)c3c2)n1 | 19.9 |
| CCOC(=O)N1CCN(c2nc(N)nc3[nH]cnc23)CC1 | 3.65 |
| O=C(Nc1nccs1)c1n[nH]c2ccccc12 | 16.6 |
| CCCN(CCC)CCCNc1ccc2nnc(-c3ccc(F)cc3)n2n1 | 15.7 |

Set 3
SMILES: Oc1ccc(Nc2nc(-c3ccc(Cl)cc3)cs2)cc1
Observed: enzyme activity
Action: inhibitor
Tested at: 0.5 µM
Reference: control
| target | remaining activity |
| --- | --- |
| AKT2 (Homo sapiens, UniProt P31751) | 96.4% |
| Cyclin-dependent kinase 1, with cyclin A (CDK1, Homo sapiens, UniProt P06493) | 91.2% |
| TXK (Homo sapiens, UniProt P42681) | 100% |
| PNCK (Homo sapiens, UniProt Q6P2M8) | 100% |
| CLK3 (Homo sapiens, UniProt P49761) | 92.6% |
| CLK4 (Homo sapiens, UniProt Q9HAZ1) | 98.8% |
| PRKG2 (Homo sapiens, UniProt Q13237) | 92.9% |
| ROCK1 (Homo sapiens, UniProt Q13464) | 103% |
| NEK3 (Homo sapiens, UniProt P51956) | 98.4% |
| MAPK14 (Homo sapiens, UniProt Q16539) | 98.6% |
| CDC42BPB (Homo sapiens, UniProt Q9Y5S2) | 108% |
| KDR (Homo sapiens, UniProt P35968) | 101% |
| Myosin-IIIb (MYO3B, Homo sapiens, UniProt Q8WXR4) | 98.7% |
| MAP2K1 (Homo sapiens, UniProt Q02750) | 90.7% |

Set 4
Host: mouse
Matrix: microsomes or S9
Tested at: 2 µM
Time: 0.5 h
| SMILES | remaining compound |
| --- | --- |
| CCOc1cc(=O)n2c(c1C(=O)Nc1cc(OC)c(Cl)cc1OC)CCCC2 | 94.7% |
| Cc1oc(-c2ccccc2)nc1CNC1(c2ccccc2)CCOCC1 | 0.94% |
| COc1ccc(-n2c(C)c(C)c3nc(OC)ccc32)cc1 | 0.13% |
| Cn1c(C(=O)Nc2cnn(C(C)(C)C(=O)O)c2)cccc1=O | > 100% |
| COC(=O)c1cccc(NC(=O)N2Cc3c(sc4c3CCCC4)-n3cccc3C2C(C)C)c1 (stereo not drawn) | 10% |
| CC(C)n1c(N2CCCN(C(=O)c3cc4cc(Cl)ccc4[nH]3)CC2)cc(=O)n(C(C)C)c1=O | 7.52% |

Excerpt of the above (set 1):
| target | remaining binding [%] |
| --- | --- |
| KIT (Homo sapiens, UniProt P10721, V559D/V654A) | 100 |
| HIPK2 (Homo sapiens, UniProt Q9H2X6) | 100 |
